Experimental data from different studies.
Numbered parts are unrelated; each lists some results of a single study. Substitutions count along the parent as printed.

Set 1
Target: Interferon regulatory factor 5, full length, phosphomimetic (IRF5, Homo sapiens, UniProt Q13568-2, residues 1-514, K96S/S451D/S453D/S456D/S462D)
Method: protein-binding microarray
Form: double-stranded DNA, one strand shown
Medium: in vitro
Tested at: 250 nM
Setting: 60-bp whole probe
Added: salmon DNA 0.4 mg/ml
Baseline: random background probes
Reading: higher = stronger binding
Endpoint: log fluorescence
Shared flanks, not repeated: GCCTAGCAC … GTCTTGATTCGCTTGACGCTGCTG
Sequence = TCTCTTTTGGCTTTCCTTTAGTGCTAG; result = 2.14 z-score
Sequence = GACGGTTTCCTTCTCCTGACGTGCTAG; result = 1.09 z-score
Sequence = TTAGATTTCAGTTTCGTTTAGTGCTAG; result = 9.16 z-score
Sequence = GACGGACTGGGGGTTCGGGACGTGCTA; result = -0.394 z-score
Sequence = AACGGACTGCTTATCCTGACGTGCTAG; result = -0.44 z-score
Sequence = GTCGGTTTCGGTTTCGGGACGTGCTAG; result = 11.2 z-score
Sequence = TTAGGGATCCTACTGCTTTAGTGCTAG; result = -0.329 z-score
Sequence = GCTCCTTTTAATTTTTAACGGTGCTAG; result = 0.606 z-score
Sequence = TTAGGTTTCCTTTTCCTTTTGTGCTAG; result = 2 z-score
Sequence = GACGAGTTCGGGTTTCGAGACGTGCTA; result = 1.43 z-score
Sequence = TCATTTCTGAATGCTCCCACTGTGCTA; result = 0.805 z-score
Sequence = TAAGAAAAGCCACCAGGACCGTGCTAG; result = -0.391 z-score
Sequence = TCATTTCTCTGTTCTAGACTGTGCTAG; result = 1.48 z-score
Sequence = GGGCCAGCAGCCAGGTGGAGGTGCTAG; result = -0.676 z-score
Sequence = TTAGAACTGGGGTATCGATCAGTGCTA; result = 1.83 z-score
Sequence = TTAAGTCTCCTACTGCTTTAGTGCTAG; result = 0.204 z-score
Sequence = GACGGACTGGGTCTCGTGACGTGCTAG; result = -0.493 z-score
Sequence = TTAGATTTCAGACTCGATTAGTGCTAG; result = 0.562 z-score
Sequence = GACGGTATCCACTTTCGGGACGTGCTA; result = 6.81 z-score
Sequence = TTAGGACTGGGTATCGGCTAGTGCTAG; result = 0.88 z-score
Sequence = GACGAACTGAGTTTCAAGACGTGCTAG; result = 0.432 z-score
Sequence = TTGGGTATCGACTATCGGTTAGTGCTA; result = 7.87 z-score
Sequence = GCCGGTCTCGGTCTCGGGACGTGCTAG; result = 0.387 z-score

Set 2
Target: CCNB1, cyclin fold, Cln2 fusion (human)
Method: yeast growth competition, sequencing
Medium: yeast
Setting: weak parent motif
Baseline: not given
Reading: higher = stronger binding
Endpoint: normalised enrichment score
Starting sequence: KIF20B docking peptide (human); KRAKRKLYTSEIS
Change = KAAKRKLYTSEIS [R2A]; result = 0.0906
Change = KRAKAKLYTSEIS [R5A]; result = -0.0703
Change = KRAKRKLYTAEIS [S10A]; result = -0.0411
Change = KRAKRKLYASEIS [T9A]; result = 0.182
Change = KRAKRKLATSEIS [Y8A]; result = -0.0331
Change = KRAKRKLYTSEAS [I12A]; result = 0.232

Set 3
Molecule: PhoQ, residues 284 288 289 292 302 303 SCKMEA
Method: Sort-seq
Measured: YFP reporter
Medium: E. coli
Setting: PhoQ-PhoP variant library
Added: 10 µM Mg2+
Baseline: high Mg2+ state
Reading: higher = stronger signaling
Endpoint: fold induction
target = PhoP, residues 12 14 15 18 19 NFFVT (Escherichia coli, UniProt P23836); result = 28.2
target = PhoP, residues 12 14 15 18 19 TPWTL (Escherichia coli, UniProt P23836); result = 17.4
target = PhoP, residues 12 14 15 18 19 VGHWL (Escherichia coli, UniProt P23836); result = 17.1

Set 4
Target: Histone acetyltransferase KAT6A, winged helix 1, GST fusion (KAT6A, Homo sapiens, UniProt Q92794, residues 1-85)
Method: protein binding microarray
Form: double-stranded DNA, one strand shown
Medium: in vitro
Tested at: not given
Setting: 8-mer, flanks averaged, mean of 2 arrays, mostly near background
Baseline: not given
Reading: higher = stronger binding
Endpoint: E-score
Residues (chain): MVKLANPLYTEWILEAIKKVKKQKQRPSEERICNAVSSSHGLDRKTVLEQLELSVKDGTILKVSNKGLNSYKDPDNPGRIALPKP
Sequence = AGAGGATC; result = -0.23
Sequence = AACCTGGC; result = -0.136
Sequence = CACTTCTC; result = -0.135
Sequence = GGCCGCCC; result = 0.384
Sequence = CGTCTTGA; result = -0.138
Sequence = ACAAGTAG; result = -0.219
Sequence = CATACAGC; result = 0.114
Sequence = CGGATAGC; result = 0.155
Sequence = CGTAGATC; result = 0.03
Sequence = ACGTCTAC; result = -0.143
Sequence = TCTGTACA; result = -0.0321
Sequence = AGACATCG; result = -0.141
Sequence = CCCGTTGA; result = 0.0739
Sequence = AAAATACT; result = -0.054
Sequence = CATGGACG; result = 0.0427
Sequence = CCCGTCTA; result = 0.187
Sequence = CACTATAC; result = -0.0687

Set 5
Target: ATF1, bZIP domain (human)
Method: DHFR protein complementation
Medium: yeast
Setting: single substitutions, most at no-binding floor
Baseline: wild-type JUN-FOS pair
Reading: higher = stronger binding
Endpoint: binding fitness
Starting sequence: JUN, bZIP domain (human); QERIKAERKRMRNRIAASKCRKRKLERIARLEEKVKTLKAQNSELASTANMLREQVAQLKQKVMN; partner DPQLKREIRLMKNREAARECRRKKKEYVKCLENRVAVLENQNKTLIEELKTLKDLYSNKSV
Change = T48A; result = -1.48 natural log
Change = Q41T; result = -1.49 natural log
Change = Q55A; result = -1.49 natural log
Change = S43G; result = -1.53 natural log
Change = L38F; result = -1.44 natural log
Change = A49W; result = -1.49 natural log
Change = V56Y; result = -1.44 natural log
Change = I28A; result = -1.53 natural log
Change = T37D; result = -1.52 natural log
Change = S43E; result = -1.41 natural log
Change = A40Y; result = -1.38 natural log
Change = R30K; result = -1.49 natural log
Change = S43M; result = -1.49 natural log
Change = S43R; result = -1.46 natural log
Change = K39R; result = -1.44 natural log
Change = K39W; result = -1.51 natural log
Change = S43Q; result = -1.31 natural log
Change = A40D; result = -1.49 natural log
Change = K34R; result = -1.47 natural log
Change = A49D; result = -1.63 natural log
Change = Q41D; result = -1.62 natural log
Change = E54A; result = -1.46 natural log
Change = E32K; result = -1.56 natural log
Change = N42Q; result = -1.58 natural log
Change = I28P; result = -1.51 natural log

Set 6
Target: Centromere-binding protein 1, full length, N-terminal tag (CBF1, Saccharomyces cerevisiae, UniProt P17106, residues 1-351)
UniProt P17106, sequence (whole entry, looked up): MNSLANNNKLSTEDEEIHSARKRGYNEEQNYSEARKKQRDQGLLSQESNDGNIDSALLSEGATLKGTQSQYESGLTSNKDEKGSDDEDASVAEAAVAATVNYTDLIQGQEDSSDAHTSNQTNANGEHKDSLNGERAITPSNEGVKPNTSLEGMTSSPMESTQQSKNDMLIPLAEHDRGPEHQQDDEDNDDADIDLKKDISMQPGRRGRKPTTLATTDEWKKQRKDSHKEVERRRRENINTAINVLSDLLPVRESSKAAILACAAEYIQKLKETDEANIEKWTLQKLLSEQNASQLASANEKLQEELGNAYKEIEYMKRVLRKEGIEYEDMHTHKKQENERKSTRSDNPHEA
Method: protein-binding microarray
Form: double-stranded DNA, one strand shown
Medium: in vitro
Tested at: 0.8 µM
Setting: whole 60-bp probe, no competitor
Reading: higher = stronger binding
Endpoint: fluorescence intensity
Shared flanks, not repeated: … GTCTTGATTCGCTTGACGCTGCTG
Sequence = CCTAACTACTATACTCACGCTGTATAGCTTCGTACA; result = 545 a.u.
Sequence = CTAGGAATAAATATACTGGTGATTGTTTATGAATTC; result = 530 a.u.
Sequence = GAAAACATTTCGTATTTCGTGATAATAGTTTCTTAG; result = 527 a.u.
Sequence = CTACATAGCGGGCCAAGCGTGGGTCACGTGCTGTTC; result = 24000 a.u.
Sequence = CTACAGCGCATACGACGGTCACCTAGGATGGAGTTC; result = 528 a.u.
Sequence = CTAGTAGTTACGGTGCACGCAGATGCAATGCTATTC; result = 569 a.u.
Sequence = TGTACGAAGCTATTCAGCGTGGTTATAGTAGTTAGG; result = 528 a.u.
Sequence = GAATTCCGAGCCAGACACGTTCTTATGTTTATCTAG; result = 547 a.u.
Sequence = GAACACCAATGCAGTCACATGTTTATGAGAACATAG; result = 3100 a.u.
Sequence = CTAATATGTATTAATGGTGGTGCCTGTCAGGGCTTC; result = 529 a.u.
Sequence = CTATGGCTCTTTAACCACGAGTGCCCACGGAGGTTC; result = 502 a.u.
Sequence = GAACATAAATAAGGGCACGTACACTAAAAAAGCTAG; result = 647 a.u.
Sequence = GAATTTTTAGGATATCCGTCACCCGTGATTCCGTAG; result = 1420 a.u.
Sequence = CTATTTTAACAATTTCTGATGATAAACTTCTTTTTC; result = 524 a.u.
Sequence = GAACTATGAACTTATCACGAAGAACGGAGATGTTAG; result = 520 a.u.
Sequence = GAATTGTTAGGTAGTCATGTGATTTTTTGTCACTAG; result = 6580 a.u.
Sequence = CTATAGAAAGATAGGCACATGCCAATTGTGTGCTTC; result = 758 a.u.

Set 7
Target: Sal-like protein 4, full length isoform A (SALL4, Homo sapiens, UniProt Q9UJQ4, residues 1-1053)
UniProt Q9UJQ4, sequence (whole entry, looked up): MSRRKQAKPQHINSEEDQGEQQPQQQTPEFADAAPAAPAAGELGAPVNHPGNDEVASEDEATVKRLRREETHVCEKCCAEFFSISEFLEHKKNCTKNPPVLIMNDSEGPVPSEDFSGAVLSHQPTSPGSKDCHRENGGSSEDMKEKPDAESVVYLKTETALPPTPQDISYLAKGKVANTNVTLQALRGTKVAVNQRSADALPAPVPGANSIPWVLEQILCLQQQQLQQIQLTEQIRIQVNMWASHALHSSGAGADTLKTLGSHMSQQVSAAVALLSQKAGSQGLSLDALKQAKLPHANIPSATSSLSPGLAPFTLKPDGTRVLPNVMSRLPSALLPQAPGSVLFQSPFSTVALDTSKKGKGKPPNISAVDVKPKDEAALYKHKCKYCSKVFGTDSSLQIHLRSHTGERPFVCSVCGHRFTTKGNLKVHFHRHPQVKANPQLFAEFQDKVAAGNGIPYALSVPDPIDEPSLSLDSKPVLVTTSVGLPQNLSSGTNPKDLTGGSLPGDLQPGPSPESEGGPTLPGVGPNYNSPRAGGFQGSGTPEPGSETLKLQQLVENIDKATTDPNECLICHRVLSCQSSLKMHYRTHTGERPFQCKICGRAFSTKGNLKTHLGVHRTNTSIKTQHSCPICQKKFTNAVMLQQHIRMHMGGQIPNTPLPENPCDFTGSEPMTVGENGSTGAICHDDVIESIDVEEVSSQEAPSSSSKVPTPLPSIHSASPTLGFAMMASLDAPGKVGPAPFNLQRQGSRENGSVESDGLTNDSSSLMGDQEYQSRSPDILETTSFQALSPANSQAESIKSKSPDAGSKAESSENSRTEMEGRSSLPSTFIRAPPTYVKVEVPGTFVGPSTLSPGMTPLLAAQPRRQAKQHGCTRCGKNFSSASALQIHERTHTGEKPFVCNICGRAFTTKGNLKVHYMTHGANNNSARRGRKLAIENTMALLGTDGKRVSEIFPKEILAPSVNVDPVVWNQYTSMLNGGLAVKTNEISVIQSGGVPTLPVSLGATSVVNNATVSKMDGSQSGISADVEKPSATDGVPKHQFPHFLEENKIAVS
Method: universal PBM
Form: double-stranded DNA, one strand shown
Medium: in vitro
Tested at: 600 nM
Setting: 8-mer, flanks averaged, mean of replicates
Reading: higher = stronger binding
Endpoint: E-score
Sequence = CATAAGGC; result = 0.0755
Sequence = GACGGCCC; result = -0.386
Sequence = GCAATTAA; result = 0.268
Sequence = CGAGCTAC; result = -0.0713
Sequence = CCTCTGCA; result = -0.0937
Sequence = CATAACAG; result = 0.127
Sequence = GAAGACGA; result = -0.14
Sequence = CACCGCCA; result = -0.133
Sequence = ACTGGCGG; result = -0.127
Sequence = GGGCAACA; result = -0.0881
Sequence = ACAGGACC; result = -0.229
Sequence = ACATCCTC; result = -0.021
Sequence = CTGCACAC; result = -0.135
Sequence = AGATTAGC; result = 0.0719
Sequence = CGACCACG; result = -0.235
Sequence = ATCCCTAA; result = -0.102
Sequence = ATCGTCTC; result = 0.0273
Sequence = ACAGCGCG; result = -0.29
Sequence = GAACCTAC; result = -0.064
Sequence = TATCCCCA; result = 0.0698
Sequence = TAGGATGA; result = -0.0349
Sequence = CATTAAGG; result = 0.133
Sequence = CTAGCTGC; result = -0.337
Sequence = GCGGAGCA; result = -0.187
Sequence = AGCCTGTC; result = -0.184

Set 8
Target: ABI1, truncated, D143A, DHFR fusion (Arabidopsis thaliana)
Method: DHFR PCA, deep sequencing
Medium: yeast
Setting: methotrexate growth selection, single substitutions
Added: (+)-ABA 0.39 µM
Baseline: wild-type fitted maximum
Reading: higher = stronger binding
Endpoint: relative binding score
Starting sequence: PYL1, truncated, DHFR fusion (Arabidopsis thaliana); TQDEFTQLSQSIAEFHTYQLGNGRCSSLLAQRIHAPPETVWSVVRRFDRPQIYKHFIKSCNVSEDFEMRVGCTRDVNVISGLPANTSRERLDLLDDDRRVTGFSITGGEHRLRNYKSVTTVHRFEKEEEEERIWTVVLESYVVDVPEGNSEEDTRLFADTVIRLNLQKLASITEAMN
Change = T101N; result = -2.96%
Change = S59P; result = -2.18%
Change = V40L; result = -2.07%
Change = R46Q; result = 56.6%
Change = V70I; result = 43.5%
Change = S80L; result = 34.8%
Change = Y141K; result = -20%
Change = I12R; result = -2.95%
Change = L169I; result = -2.6%
Change = S63I; result = 19.9%
Change = N61C; result = 48.5%
Change = S80R; result = -2.29%
Change = G107L; result = -5.29%
Change = A35Q; result = -9.37%
Change = C60R; result = 5.4%
Change = K116A; result = 6.63%
